Assay results gathered from unrelated publications.
Each line is one published result; not all experiments were run side by side. Several values in a cell are separate wells, animals, samples, runs or records. ± gives the spread as reported.

Structure (SMILES) | test | test system | setting | plasma concentration
CCCCCN1C[C@H](O)[C@@H](O)[C@H](O)[C@@H]1CO | LC-MS/MS | mouse Hexb-/- total, plasma | 300 mg/kg/day, geometric mean | 3020 ng/mL
CSc1cc(Oc2ccnc3[nH]c(=O)cnc23)ccc1NC(=O)Nc1cc(C(C)(C)C)nn1-c1ccccc1 | – | NSG mouse, female, tumor | oral, 20 mg/kg, 1 h after last dose | 11.7 µM and 11 µM and 6.99 µM and 9.98 µM
CC(C)n1ncc2c(C(=O)NCC3(C)CNC3)cc(C3CC3)nc21 | – | mouse BALB/c female, plasma | intraperitoneal, 50 mg/kg, 1 h | 1640 ng/mL and 2820 ng/mL and 1750 ng/mL and 2190 ng/mL
CC(C)(C)c1cc(NC(=O)Nc2ccc(Oc3ccnc4[nH]c(=O)cnc34)cc2F)n(-c2ccccc2)n1 | – | NSG mouse, female, plasma | oral, 20 mg/kg, 1 h after last dose | 19.1 µM and 28.1 µM and 42.1 µM and 19.5 µM and 10.6 µM
C[C@@H](O)[C@H]1C(=O)N2C(C(=O)O)=C(S[C@@H]3CN[C@H](C(=O)N(C)C)C3)[C@H](C)[C@H]12 | – | BALB/c mouse, male, plasma | intraperitoneal, 100 mg/kg, 4 h | 17800 ng/mL
O=C1CCC(N2Cc3cc(CO)c(F)cc3C2=O)C(=O)N1 (centres unmarked) | – | CD-1 mouse, male | oral, 10 mg/kg parent drug, 0.67 h | 29.4 ± 14 ng/mL
Cc1cc([C@H]2C[C@H]3[C@@H](C)SC(N)=N[C@@]3(c3ccc(F)cc3F)CO2)on1 | – | male 129/SVE mouse, plasma | subcutaneous, 50 mg/kg, 3 h | 3.77 µM
CNC(=O)c1cc2c(Oc3ccc(NC(=O)C4(C(=O)Nc5ccc(F)cc5)CC4)cc3)ccnc2cc1OC | LC-MS/MS | mouse, NCI-H441 xenograft, plasma | oral, 3 mg/kg once daily for 14 days, 4 h | 2.44 µM
c1csc(CNc2cc[nH]n2)c1 | – | mouse, CD-1, male, plasma | oral, 20 mg/kg as HCl salt, 0.25 h | 54.6 µM
Cc1c(C(=O)O)ccc2c3n(nc12)[C@@H]1[C@H](C3)N(CC2CC2)[C@@]2(C(=O)Nc3cc(Cl)ccc32)[C@H]1c1cccc(Cl)c1F | – | female BALB/c nude mouse, SJSA-1 xenograft, plasma | oral, 2 mg/kg once daily, 7 h | 1.1 µM
Cc1cc([C@H]2C[C@H]3[C@@H](CF)SC(N)=N[C@@]3(c3ccc(F)cc3F)CO2)on1 | – | male 129/SVE wild-type mouse, plasma | subcutaneous, 30 mg/kg, 5 h | 0.101 µM
CCN1CCN(Cc2ccc(NC(=O)c3ccc(C)c(NC(=O)c4cncc(-c5cccs5)c4)c3)cc2C(F)(F)F)CC1 | LC-MS/MS | C57BL/6 mouse, plasma | intraperitoneal, 20 mg/kg single dose, 8 h | 59 ng/mL and 72 ng/mL and 49 ng/mL
Cc1coc([C@H]2C[C@H]3[C@@H](CF)SC(N)=N[C@@]3(c3ccc(F)cc3F)CO2)n1 | – | male 129/SVE mouse, plasma | subcutaneous, 80 mg/kg, 5 h | 0.227 µM
c1ccc(-c2nc(N3CCC(c4ccccn4)C3)c3ccccc3n2)nc1 (centres unmarked) | – | mouse, Balb/c female, plasma | oral, 12.5 mg/kg, 24 h, mean, together with: aminobenzotriazole pretreatment | 55.7 ng/mL

For quick reference, copied from above:
Structure (SMILES) | test | test system | setting | plasma concentration
Cc1cc([C@H]2C[C@H]3[C@@H](CF)SC(N)=N[C@@]3(c3ccc(F)cc3F)CO2)on1 | – | male 129/SVE wild-type mouse, plasma | subcutaneous, 30 mg/kg, 5 h | 0.101 µM
CCN1CCN(Cc2ccc(NC(=O)c3ccc(C)c(NC(=O)c4cncc(-c5cccs5)c4)c3)cc2C(F)(F)F)CC1 | LC-MS/MS | C57BL/6 mouse, plasma | intraperitoneal, 20 mg/kg single dose, 8 h | 59 ng/mL and 72 ng/mL and 49 ng/mL
